Assay results gathered from unrelated publications.
Parts stem from different laboratories: compare values within a part only.
Sequence of UniProt A6PVI3 (21-130, looked up): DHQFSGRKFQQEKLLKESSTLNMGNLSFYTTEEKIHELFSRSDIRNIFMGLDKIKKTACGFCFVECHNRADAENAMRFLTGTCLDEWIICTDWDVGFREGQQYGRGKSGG

Study 1
Target: Histone acetyltransferase KAT6A, winged helix 2, GST fusion (KAT6A, Homo sapiens, UniProt Q92794, residues 85-181)
Method: protein binding microarray
Molecule type: double-stranded DNA, one strand shown
Medium: in vitro
Concentration: not given
Setting: 8-mer, flanks averaged, mean of 2 arrays, mostly near background
Relative to: not given
Direction: higher = stronger binding
Target sequence (chain): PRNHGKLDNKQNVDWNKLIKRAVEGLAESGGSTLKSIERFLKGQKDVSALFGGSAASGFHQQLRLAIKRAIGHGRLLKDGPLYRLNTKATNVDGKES
| Strand | E-score |
| --- | --- |
| TAGAAAGA | -0.154 |
| ATACCAAG | -0.0191 |
| CATAGTAA | 0.0242 |
| CCATGCAA | 0.09 |
| GGCGGCGA | 0.178 |
| CACTATGG | -0.0563 |

Study 2
Target: Protein C-ets-1 (ETS1, Homo sapiens, UniProt P14921, residues 1-441, full length assumed)
Method: protein-binding microarray
Molecule type: double-stranded DNA, one strand shown
Medium: in vitro
Concentration: not given
Setting: k-mer, scored over probes, only values ≥0.25
Direction: higher = stronger binding
Target sequence (chain): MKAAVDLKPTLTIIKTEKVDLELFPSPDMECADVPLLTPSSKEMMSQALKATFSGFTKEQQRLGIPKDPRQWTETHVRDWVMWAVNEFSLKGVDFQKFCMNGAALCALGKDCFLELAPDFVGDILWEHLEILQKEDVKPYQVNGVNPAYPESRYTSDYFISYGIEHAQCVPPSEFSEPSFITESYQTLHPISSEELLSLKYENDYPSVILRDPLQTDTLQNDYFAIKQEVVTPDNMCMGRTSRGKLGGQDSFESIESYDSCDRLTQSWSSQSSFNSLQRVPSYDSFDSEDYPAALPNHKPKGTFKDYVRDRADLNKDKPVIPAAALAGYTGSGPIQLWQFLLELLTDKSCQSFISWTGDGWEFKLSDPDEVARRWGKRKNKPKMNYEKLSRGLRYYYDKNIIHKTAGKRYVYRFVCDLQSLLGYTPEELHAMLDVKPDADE
| Strand | E-score |
| --- | --- |
| CCCGCGGA | 0.25 |
| CGGAAGTC | 0.492 |
| ATCCTGTC | 0.447 |
| GCATCCGC | 0.458 |

Other studies, line by line
| Molecule | target | assay | test system | conditions | how to read | measurement | value |
| --- | --- | --- | --- | --- | --- | --- | --- |
| AAAAAAAA (biotin) | Nuclear cap-binding protein subunit 2-like, RRM domain (NCBP2L, Homo sapiens, UniProt A6PVI3, residues 21-130) | protein domain microarray | RNA, in vitro | not given, poly(A) 8-mer RNA, whole probe, immobilized GST-fusion domains, most near background | relative to: GST loading signal, higher = stronger binding | signal ratio | 0.0376 |
| PhoQ, residues 284 288 289 292 302 303 SCKMEA | PhoP, residues 12 14 15 18 19 VQALL (Escherichia coli, UniProt P23836) | Sort-seq, measured: YFP reporter | E. coli | PhoQ-PhoP variant library, added: 10 µM Mg2+ | relative to: high Mg2+ state, higher = stronger signaling | fold induction | 1.85 |

Excerpt of the above (study 1):
| Strand | E-score |
| --- | --- |
| ATACCAAG | -0.0191 |
